Published values from different studies.
Each line is one published result; not all experiments were run side by side. Numbers after ± are the reported error.
PTPN7: Tyrosine-protein phosphatase non-receptor type 7 (PTPN7, Homo sapiens, UniProt P35236)
NR3C1: Glucocorticoid receptor (NR3C1, Homo sapiens, UniProt P04150)

Chains of the proteins cited; added tags and fusions are not shown. Lines headed by an entry give the natural chain unless they say otherwise; changes in a name come on top. Residues count along the entry.
UniProt P35236, whole entry: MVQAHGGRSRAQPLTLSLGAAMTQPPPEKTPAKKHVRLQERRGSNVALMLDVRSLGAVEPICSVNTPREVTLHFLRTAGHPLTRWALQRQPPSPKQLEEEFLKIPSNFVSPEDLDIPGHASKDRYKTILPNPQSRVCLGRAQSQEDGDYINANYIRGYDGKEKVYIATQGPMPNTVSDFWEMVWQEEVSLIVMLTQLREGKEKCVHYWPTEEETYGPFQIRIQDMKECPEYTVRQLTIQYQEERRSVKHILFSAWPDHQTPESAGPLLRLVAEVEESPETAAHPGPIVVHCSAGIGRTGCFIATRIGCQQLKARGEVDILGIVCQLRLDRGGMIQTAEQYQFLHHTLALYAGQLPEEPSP
UniProt Q9NWZ3, whole entry: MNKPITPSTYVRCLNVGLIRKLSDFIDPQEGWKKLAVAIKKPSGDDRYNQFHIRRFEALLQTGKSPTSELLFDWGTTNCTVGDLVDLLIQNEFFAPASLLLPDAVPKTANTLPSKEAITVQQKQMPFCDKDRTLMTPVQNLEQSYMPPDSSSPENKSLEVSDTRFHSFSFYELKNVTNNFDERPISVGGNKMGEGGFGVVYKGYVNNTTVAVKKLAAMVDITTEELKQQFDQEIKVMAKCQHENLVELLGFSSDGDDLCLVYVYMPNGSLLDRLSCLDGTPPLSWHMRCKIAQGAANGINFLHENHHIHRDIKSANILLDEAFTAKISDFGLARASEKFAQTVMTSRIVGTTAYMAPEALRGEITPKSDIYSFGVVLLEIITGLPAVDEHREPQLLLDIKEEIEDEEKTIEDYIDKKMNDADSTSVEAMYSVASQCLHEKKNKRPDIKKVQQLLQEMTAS
UniProt P07384, whole entry: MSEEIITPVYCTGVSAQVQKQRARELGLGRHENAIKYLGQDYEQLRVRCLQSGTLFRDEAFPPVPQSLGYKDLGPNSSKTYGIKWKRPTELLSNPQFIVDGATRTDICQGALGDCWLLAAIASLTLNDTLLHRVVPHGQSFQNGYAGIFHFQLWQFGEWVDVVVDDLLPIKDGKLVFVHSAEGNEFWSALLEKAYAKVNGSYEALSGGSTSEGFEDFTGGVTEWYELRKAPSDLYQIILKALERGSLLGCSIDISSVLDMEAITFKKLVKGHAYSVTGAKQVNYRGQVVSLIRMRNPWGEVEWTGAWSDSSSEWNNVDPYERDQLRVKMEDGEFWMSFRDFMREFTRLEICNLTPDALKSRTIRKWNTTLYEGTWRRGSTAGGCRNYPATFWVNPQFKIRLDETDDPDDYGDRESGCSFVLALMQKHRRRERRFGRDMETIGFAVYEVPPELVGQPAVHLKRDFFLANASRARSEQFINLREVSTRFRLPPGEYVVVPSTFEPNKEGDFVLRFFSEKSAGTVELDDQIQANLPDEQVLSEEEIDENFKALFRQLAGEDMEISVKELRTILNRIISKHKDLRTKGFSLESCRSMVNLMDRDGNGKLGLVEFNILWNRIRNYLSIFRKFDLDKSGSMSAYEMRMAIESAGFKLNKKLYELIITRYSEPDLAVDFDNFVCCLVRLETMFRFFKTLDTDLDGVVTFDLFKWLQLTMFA
UniProt P35241, whole entry: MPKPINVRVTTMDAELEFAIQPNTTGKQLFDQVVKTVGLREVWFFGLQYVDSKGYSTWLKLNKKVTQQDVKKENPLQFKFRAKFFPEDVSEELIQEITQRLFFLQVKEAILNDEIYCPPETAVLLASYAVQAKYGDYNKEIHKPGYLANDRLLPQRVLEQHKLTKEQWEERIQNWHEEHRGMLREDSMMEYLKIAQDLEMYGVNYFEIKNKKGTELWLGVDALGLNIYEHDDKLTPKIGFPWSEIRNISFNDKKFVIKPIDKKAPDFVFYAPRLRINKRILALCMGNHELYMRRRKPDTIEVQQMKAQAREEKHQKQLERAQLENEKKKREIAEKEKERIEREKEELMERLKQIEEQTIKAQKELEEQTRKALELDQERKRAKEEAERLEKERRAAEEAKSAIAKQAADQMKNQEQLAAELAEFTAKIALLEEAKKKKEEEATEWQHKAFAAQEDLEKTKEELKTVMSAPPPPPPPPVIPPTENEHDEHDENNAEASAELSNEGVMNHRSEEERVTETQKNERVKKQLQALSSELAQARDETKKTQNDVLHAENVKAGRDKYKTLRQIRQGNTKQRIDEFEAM
UniProt Q15256, 22-657 limits assumed: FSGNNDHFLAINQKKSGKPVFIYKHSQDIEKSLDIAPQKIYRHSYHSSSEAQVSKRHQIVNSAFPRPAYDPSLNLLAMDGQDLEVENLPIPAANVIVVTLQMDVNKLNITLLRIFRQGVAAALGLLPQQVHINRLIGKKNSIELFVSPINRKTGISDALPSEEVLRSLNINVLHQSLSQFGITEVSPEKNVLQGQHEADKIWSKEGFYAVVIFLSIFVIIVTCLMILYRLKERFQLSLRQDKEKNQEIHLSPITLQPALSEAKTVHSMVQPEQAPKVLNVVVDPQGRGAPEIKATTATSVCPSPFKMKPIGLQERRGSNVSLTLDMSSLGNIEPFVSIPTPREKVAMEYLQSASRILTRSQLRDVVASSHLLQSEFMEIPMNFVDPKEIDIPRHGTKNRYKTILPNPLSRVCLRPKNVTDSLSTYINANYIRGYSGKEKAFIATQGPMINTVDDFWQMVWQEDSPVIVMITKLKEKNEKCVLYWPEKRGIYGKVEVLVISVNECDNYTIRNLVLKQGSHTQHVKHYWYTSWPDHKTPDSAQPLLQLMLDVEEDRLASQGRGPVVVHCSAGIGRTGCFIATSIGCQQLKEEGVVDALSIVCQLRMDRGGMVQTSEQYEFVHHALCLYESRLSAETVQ
UniProt P08631, whole entry: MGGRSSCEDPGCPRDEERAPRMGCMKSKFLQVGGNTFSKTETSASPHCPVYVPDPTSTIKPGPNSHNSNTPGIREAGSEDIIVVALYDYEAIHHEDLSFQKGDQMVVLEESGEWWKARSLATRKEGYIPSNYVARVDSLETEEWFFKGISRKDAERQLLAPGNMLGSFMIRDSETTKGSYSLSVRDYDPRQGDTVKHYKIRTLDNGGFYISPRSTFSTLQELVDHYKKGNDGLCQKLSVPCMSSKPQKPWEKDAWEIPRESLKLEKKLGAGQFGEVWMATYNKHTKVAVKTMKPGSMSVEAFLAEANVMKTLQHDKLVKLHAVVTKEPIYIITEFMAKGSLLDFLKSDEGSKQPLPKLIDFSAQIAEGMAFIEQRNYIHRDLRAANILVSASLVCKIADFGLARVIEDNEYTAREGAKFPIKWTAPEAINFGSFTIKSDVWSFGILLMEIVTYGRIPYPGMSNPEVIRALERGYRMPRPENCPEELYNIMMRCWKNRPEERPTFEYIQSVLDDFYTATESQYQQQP
UniProt P50897, 28-306 limits assumed: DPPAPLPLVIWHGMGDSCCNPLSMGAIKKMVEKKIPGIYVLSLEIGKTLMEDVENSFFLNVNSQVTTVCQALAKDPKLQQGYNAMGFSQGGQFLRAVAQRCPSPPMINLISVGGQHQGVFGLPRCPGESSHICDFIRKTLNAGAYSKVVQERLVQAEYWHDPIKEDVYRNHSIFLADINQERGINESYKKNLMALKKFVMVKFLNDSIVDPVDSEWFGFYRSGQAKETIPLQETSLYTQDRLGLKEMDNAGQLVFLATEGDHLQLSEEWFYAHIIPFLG
UniProt P40261, whole entry: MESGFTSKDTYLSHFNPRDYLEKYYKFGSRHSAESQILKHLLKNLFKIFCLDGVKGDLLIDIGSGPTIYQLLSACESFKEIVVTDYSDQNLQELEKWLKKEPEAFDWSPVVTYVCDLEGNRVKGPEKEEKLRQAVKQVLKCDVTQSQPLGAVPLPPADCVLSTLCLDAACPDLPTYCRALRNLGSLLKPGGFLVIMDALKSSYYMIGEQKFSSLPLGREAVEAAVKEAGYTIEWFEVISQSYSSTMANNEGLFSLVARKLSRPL
UniProt P27707, whole entry: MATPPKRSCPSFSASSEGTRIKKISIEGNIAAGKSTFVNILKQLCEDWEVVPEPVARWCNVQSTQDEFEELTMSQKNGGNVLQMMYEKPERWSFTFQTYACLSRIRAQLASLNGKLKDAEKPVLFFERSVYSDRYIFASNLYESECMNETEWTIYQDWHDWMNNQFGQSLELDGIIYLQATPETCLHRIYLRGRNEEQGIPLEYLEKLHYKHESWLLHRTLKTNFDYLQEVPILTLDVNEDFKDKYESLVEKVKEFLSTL
UniProt Q61009, whole entry: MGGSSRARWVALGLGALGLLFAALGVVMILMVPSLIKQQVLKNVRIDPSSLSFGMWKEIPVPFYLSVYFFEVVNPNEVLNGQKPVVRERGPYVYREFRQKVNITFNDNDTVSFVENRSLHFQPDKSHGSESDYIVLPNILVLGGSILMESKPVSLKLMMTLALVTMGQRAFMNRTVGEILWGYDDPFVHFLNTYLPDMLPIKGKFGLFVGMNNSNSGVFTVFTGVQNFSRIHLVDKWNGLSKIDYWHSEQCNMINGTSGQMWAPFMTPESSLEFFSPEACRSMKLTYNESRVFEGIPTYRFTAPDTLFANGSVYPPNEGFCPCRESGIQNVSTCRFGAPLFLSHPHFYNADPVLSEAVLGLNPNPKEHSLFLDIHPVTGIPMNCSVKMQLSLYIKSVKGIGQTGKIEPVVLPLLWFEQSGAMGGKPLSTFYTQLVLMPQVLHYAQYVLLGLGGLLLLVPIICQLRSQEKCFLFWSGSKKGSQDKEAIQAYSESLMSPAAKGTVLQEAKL
UniProt P18031, whole entry: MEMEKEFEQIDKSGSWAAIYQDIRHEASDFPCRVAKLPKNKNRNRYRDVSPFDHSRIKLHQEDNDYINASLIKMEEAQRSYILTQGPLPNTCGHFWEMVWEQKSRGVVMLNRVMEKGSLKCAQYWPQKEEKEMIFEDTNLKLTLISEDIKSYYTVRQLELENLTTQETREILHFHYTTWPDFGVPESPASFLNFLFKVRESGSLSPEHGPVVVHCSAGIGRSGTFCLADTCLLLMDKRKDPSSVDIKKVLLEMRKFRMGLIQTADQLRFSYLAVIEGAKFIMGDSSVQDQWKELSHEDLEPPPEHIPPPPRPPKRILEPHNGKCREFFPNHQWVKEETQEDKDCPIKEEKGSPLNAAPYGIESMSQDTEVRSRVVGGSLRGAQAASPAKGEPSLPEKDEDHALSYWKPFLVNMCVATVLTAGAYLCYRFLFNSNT
UniProt O75116, whole entry: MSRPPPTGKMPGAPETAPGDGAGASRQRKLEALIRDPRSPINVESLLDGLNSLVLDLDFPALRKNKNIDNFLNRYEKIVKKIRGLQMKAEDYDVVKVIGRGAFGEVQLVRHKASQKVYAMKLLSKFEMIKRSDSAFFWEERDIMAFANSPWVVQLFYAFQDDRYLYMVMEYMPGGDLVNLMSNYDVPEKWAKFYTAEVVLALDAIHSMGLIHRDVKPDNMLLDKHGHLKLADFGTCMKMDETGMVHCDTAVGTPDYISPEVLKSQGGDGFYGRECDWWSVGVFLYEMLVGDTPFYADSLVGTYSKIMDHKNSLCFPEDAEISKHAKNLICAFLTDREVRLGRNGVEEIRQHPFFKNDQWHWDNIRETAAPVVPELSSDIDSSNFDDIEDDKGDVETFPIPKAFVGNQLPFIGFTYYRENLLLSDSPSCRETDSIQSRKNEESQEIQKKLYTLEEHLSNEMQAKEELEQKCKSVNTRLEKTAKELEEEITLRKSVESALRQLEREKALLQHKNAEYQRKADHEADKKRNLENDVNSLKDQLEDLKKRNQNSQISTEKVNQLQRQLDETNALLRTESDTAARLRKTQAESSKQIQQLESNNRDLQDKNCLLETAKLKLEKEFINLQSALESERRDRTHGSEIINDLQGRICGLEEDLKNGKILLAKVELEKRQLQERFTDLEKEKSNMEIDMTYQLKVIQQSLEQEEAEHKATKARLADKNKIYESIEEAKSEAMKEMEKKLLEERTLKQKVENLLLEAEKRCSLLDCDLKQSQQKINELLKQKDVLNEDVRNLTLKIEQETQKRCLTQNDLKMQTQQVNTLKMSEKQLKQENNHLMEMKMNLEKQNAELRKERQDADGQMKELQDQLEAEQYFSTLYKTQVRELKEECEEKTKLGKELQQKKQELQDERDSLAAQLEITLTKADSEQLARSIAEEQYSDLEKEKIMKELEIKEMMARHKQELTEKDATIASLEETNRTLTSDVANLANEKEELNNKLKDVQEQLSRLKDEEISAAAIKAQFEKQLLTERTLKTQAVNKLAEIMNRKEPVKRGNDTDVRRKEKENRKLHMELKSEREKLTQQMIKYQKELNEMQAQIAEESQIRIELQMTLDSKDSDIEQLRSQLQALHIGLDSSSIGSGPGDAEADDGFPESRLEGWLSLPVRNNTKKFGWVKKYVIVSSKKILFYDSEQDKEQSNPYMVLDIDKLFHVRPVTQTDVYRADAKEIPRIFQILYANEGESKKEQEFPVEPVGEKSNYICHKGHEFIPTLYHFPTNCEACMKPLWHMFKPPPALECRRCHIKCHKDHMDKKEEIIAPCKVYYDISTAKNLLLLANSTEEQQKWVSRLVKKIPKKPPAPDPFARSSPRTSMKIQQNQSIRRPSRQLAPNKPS

`COc1cc2ncc(-c3cccc(NC4CCNC4)n3)n2cc1-c1cn[nH]c1` (stereo not shown) has an IC50 of < 0.5 nM (IRAK4 (Homo sapiens, UniProt Q9NWZ3); kinase activity, inhibitor).
With `O=c1/c(=C/c2ccc(-c3ccccc3[N+](=O)[O-])o2)sc2nc3cc(Br)cnc3n12` the IC50 was 4900 nM (PTPN7; phosphatase activity, inhibitor; with: OMFP).
`CCCCCC/C=C\CC(=O)N[C@@H](Cc1ccccc1)[C@@H](O)CC(=O)N[C@H](C(=O)N[C@@H](CO)[C@@H](O)CC(=O)N[C@H](C(=O)N[C@@H]1C=CC(=O)N[C@@H](C(C)C)C(=O)N(C)[C@@H](Cc2ccc(O)cc2)C(=O)OC1)C(C)C)C(C)C` gave an IC50 of 29 ± 2 nM (CAPN1 (Homo sapiens, UniProt P07384); enzyme activity, inhibitor, fluorescence; 1 h, 37 °C).
For `O=C1C=C(NCCc2cc(Br)c(O)c(Br)c2)C(=O)c2ncccc21`, the IC50 was 35300 nM (Radixin (Homo sapiens, UniProt P35241); phosphorylation, inhibitor, in vitro kinase).
The EC50 of `CC(=O)O[C@H]1CC[C@@]2(C)[C@@H](CC[C@H]3[C@H]2CC(=O)[C@@]2(C)[C@@H]3C[C@H]3CC(C)=CC(=O)[C@H]32)C1` is reported as > 9000 nM (NR3C1; nuclear translocation, agonist, enzyme fragment complementation).
`O=c1/c(=C/c2ccccc2Cl)sc2nc3cc(Br)cnc3n12` has an IC50 of > 100000 nM (PTPRR (Homo sapiens, UniProt Q15256); phosphatase activity, inhibitor; with: OMFP).
With `Cc1nn(-c2ccnc(Nc3ccc(-c4csc5c(=O)cc(N6CCOCC6)oc45)cc3)n2)cc1CN1CC(O)C1` the IC50 was 20 nM (SYK (Homo sapiens, UniProt P43405); enzyme activity, inhibitor).
`CCN1CCN(Cc2ccc(NC(=O)c3ccc(C)c(Oc4ncnc5cc(OC)c(OC)cc45)c3)cc2C(F)(F)F)CC1` has an IC50 of 160 nM (HCK (Homo sapiens, UniProt P08631); enzyme activity, Z'-LYTE; with: ATP at Km).
For `COc1cc(-c2nc3ccc(C(=O)NCCCN4CCN(C)C(c5ccccc5)C4)cc3n2C2CCC2)cc(OC)c1OC` (stereo not shown), the IC50 was 2720 nM (ACVR1 (Homo sapiens, UniProt Q04771); target engagement, NanoBRET; HEK293).
`O=C(ON1C(=O)C2CN(C(=O)N3CCOCC3)CCN2C1=O)N1CCC(CCc2ccc(Cl)cc2)CC1` (stereo not shown) gave an IC50 of 500 nM (Palmitoyl-protein thioesterase 1 (Homo sapiens, UniProt P50897); competitive ABPP; HEK293T transfected with PPT1).
`C[n+]1cccc2c(N)cccc21` has an IC50 of < 10 nM (NNMT (Homo sapiens, UniProt P40261); enzyme activity, inhibitor).
`COc1ccc(-c2nc([C@H](C)Sc3nc(N)cc(N)n3)c(C)s2)cc1OCCN1CCOCC1` has an IC50 of 468 ± 2.1 nM (DCK (Homo sapiens, UniProt P27707); deoxycytidine uptake, inhibitor, [3H]-deoxycytidine uptake; CEM; 1 h, 37 °C).
With `CC(C)NC(=O)Nc1ccc2c(c1)C(=O)N([C@H](C)CO)C[C@@H](C)[C@H](CN(C)S(=O)(=O)c1ccc(Cl)cc1)O2` the IC50 was 100 ± 20 nM (Scavenger receptor class B member 1 (Mus musculus, UniProt Q61009); DiI-HDL uptake, inhibitor; ldlA[mSR-BI] cells; resynthesized or repurified compound).
For `COc1cc(CC(=O)NCC(NC(=O)C(CCCNC(=O)c2cccc(I)c2)NC(=O)C(Cc2ccc(C(F)(F)P(=O)(O)O)cc2)NC(=O)c2ccc(C)c(Br)c2)C(N)=O)ccc1O` (stereo not shown), inhibition read “no inhibition” (Receptor-type tyrosine-protein phosphatase epsilon (Homo sapiens, UniProt P23469); enzyme activity; 10 µM).
`C[C@@]12CC[C@H]3[C@@H](CC[C@H]4C[C@@H](O)CC[C@]43C)[C@H]1CC[C@@H]2C(=O)C[C@H](O)C(F)(F)F` gave an EC50 of > 9000 nM (NR3C1; nuclear translocation, agonist, enzyme fragment complementation).
With `Cc1cc(C)c2nc3s/c(=C\c4ccc(-c5ccccc5C(=O)O)o4)c(=O)n3c2c1` the IC50 was 28000 nM (PTPN1 (Homo sapiens, UniProt P18031); phosphatase activity, inhibitor; with: OMFP).
`COc1cccc(CNC(=O)Nc2ccc(-c3cn[nH]c3)cc2)c1` gave an IC50 of 2 nM (ROCK2 (Homo sapiens, UniProt O75116); enzyme activity, inhibitor).
`O=c1/c(=C/c2ccc(-c3cc(Cl)cc(Cl)c3)o2)sc2nc3cc(Br)cnc3n12` has an IC50 of 5700 nM (PTPN7; phosphatase activity, inhibitor; with: OMFP).
With `Cc1csc(-c2cc3ccc(OCc4c(F)c(F)c(F)c(F)c4F)cc3oc2=O)n1` the IC50 was > 20000 nM (Prothrombin (F2, Bos taurus, UniProt P00735); enzyme activity; 30 min preincubation, with: pyroGlu-Pro-Arg-pNA).

Excerpt of the above:
`COc1cccc(CNC(=O)Nc2ccc(-c3cn[nH]c3)cc2)c1` gave an IC50 of 2 nM (ROCK2 (Homo sapiens, UniProt O75116); enzyme activity, inhibitor).
The EC50 of `CC(=O)O[C@H]1CC[C@@]2(C)[C@@H](CC[C@H]3[C@H]2CC(=O)[C@@]2(C)[C@@H]3C[C@H]3CC(C)=CC(=O)[C@H]32)C1` is reported as > 9000 nM (NR3C1; nuclear translocation, agonist, enzyme fragment complementation).
With `Cc1cc(C)c2nc3s/c(=C\c4ccc(-c5ccccc5C(=O)O)o4)c(=O)n3c2c1` the IC50 was 28000 nM (PTPN1 (Homo sapiens, UniProt P18031); phosphatase activity, inhibitor; with: OMFP).
